Published values collected from several papers.
Lines come from different studies, so protocols differ. Values joined by “and” are separate records of one study, mostly repeats; a detail may differ. ± gives the spread as reported.

Cn1cncc1-c1c(F)cncc1NC(=O)c1c(N)nn2cc(F)cnc12
peripheral volume V2 (two-compartment PK-TGI model; xenograft-bearing mice, plasma; dose not given): 0.0102 L/kg

COc1ccc2[nH]c([S+]([O-])Cc3ncc(C)c(OC)c3C)nc2c1 (stereo not drawn)
Cmax (healthy Chinese volunteers, plasma; oral, 20 mg, fed, CYP2C19 normal metabolizers): 239 ± 194 ng/mL

Cn1cc(Nc2nccc(-c3ccc4c(c3)CN(C3COC3)CC[C@H]4NC(=O)c3cn(C(C)(C)C)nn3)n2)cn1
NK cell count change (human, whole blood; 150 mg twice daily, day 7; relative to: pre-dose baseline): -15.3%

O=C(COc1ccc(Cl)cc1)NC12CC(c3nnc([C@H]4C[C@@H](OC(F)(F)F)C4)o3)(C1)C2
participants with procedural pain (human both sexes; oral, 100 mg once daily, 14 days): 14.3%

O=S(=O)(O)Oc1ccc(CCO)cc1O
plasma concentration (human plasma; mean): 31.9 nM

COc1cccc2c1c(O)c(C(=O)N(C)c1ccc(C(F)(F)F)cc1)c(=O)n2C
serum blood urea nitrogen (mouse, CP model, serum; 0.154 µmol/kg, 4 weeks): no effect

C=CC(=O)NC1CCN(c2ncc3ncnc(Nc4ccc(Oc5ccc6c(c5)ncn6C)c(C)c4)c3n2)CC1
patients with abnormal dreams (male patients; oral, dose not given, on-treatment adverse events): 0%

CC(C)(C(=O)N1CCOc2c(C#N)cncc2C1)C(F)F
subjects with adverse event (refers to: Presyncope; human; oral, 15 mg twice daily, 14 days, multiple ascending dose): 0%

O=C(N[C@H](Cc1c[nH]c2ccccc12)C(=O)Nc1ccncc1)c1ccc(N2CCN(c3ccc(F)c(F)c3)CC2)cc1F
concentration (Swiss Webster mouse, female, fat; oral, 50 mg/kg, 8 h, 20% HPβCD vehicle): 320 nM

CC(=O)N[C@H]1CC[C@H](NC(=O)CN2CCN(c3nncc(-c4ccc(C)cc4)n3)CC2)CC1
AUC(0-last) (men aged 18-55 years, plasma; oral, 100 mg single dose, study): 5350 ng·h/mL

Cc1ccc(O)c(-n2nc3ccccc3n2)c1
daily dermal exposure dose (human aged 16-21 years; concentration not given, sunscreen, 95th percentile): 3510 ng/kg/day

O=C(Nc1cnccc1Cl)N1CCN(Cc2ccc3c(c2)OC(F)(F)O3)CC1
t1/2 (elderly men and women, plasma; oral, 100 mg once daily, day 10): 13.2 h

C[C@@H](O)[C@H]1C(=O)N2C(C(=O)O)=C(SCCN=CN)C[C@H]12
amount permeated (starch gel membrane permeability; Gram-negative envelope surrogate; 200 µM, 60 min, pH 7.4): 3.76 nmol

O=C(Nc1nc2cccc(-c3ccc(CN4CCS(=O)(=O)CC4)cc3)n2n1)C1CC1
treatment-emergent adverse events (refers to: aspartate aminotransferase increased; human rheumatoid arthritis patients; oral, 30 mg once daily, 4 weeks, regardless of relatedness): 5.9%

N#Cc1ccc2c(c1)[C@H]1CCCN(C(=O)c3ccc4[nH]cnc4c3)[C@H]1C2
ACTH level change (human; 10 mg, end of trial; relative to: baseline): 1 pmol/L

C=CCn1c(=O)c2cnc(Nc3ccc(N4CCN(C)CC4)cc3)nc2n1-c1ccc2c(n1)[C@@](O)(CC)CC2
oral bioavailability (dog): 142%

Cc1cc(Nc2cc3ncccc3c(N[C@@H]3C[C@H]4CC[C@@H](C3)N4CCC#N)n2)n[nH]1
sneezing incidence (healthy human subjects; oral, 100 mg, 14 days, multiple ascending dose): 17%

Cn1c(=O)c2[nH]cnc2n(C)c1=O
samples above LOQ (human, both sexes, plasma): 100%

CCCCOc1nc(N)c2c(n1)N(Cc1cccc(CN3CCCC3)c1)CC(=O)N2
drug-related TEAE incidence (refers to: visual impairment; human; oral, 2 mg): 0%

Cc1c2oc3c(C)ccc(C(=O)N[C@@H]4C(=O)N[C@H](C(C)C)C(=O)N5CCC[C@H]5C(=O)N(C)CC(=O)N(C)[C@@H](C(C)C)C(=O)O[C@@H]4C)c3nc-2c(C(=O)N[C@@H]2C(=O)N[C@H](C(C)C)C(=O)N3CCC[C@H]3C(=O)N(C)CC(=O)N(C)[C@@H](C(C)C)C(=O)O[C@@H]2C)c(N)c1=O
median plasma concentration (LC-MS; children with cancer, plasma; dose not given, 4 h): 3.7 µg/L

CCn1cc(C(=O)O)c(=O)c2cnc(N3CCNCC3)nc21
amount permeated (starch gel membrane permeability; Gram-negative envelope surrogate; 200 µM, 20 min, pH 7.4): 1.51 nmol

O=C(O)c1cc(O)cc(O)c1
plasma concentration (human plasma; median, both sexes): 992 nM

O=C(O)CCC(=O)O.[2H]C([2H])([2H])Oc1cc(C)c2[nH]ccc2c1CN1CC[C@@H](C2CC2)C[C@H]1c1ccc(C(=O)O)cc1
subjects with TEAE Constipation (multiple ascending dose; healthy Chinese subjects; 300 mg once daily): 0%

CCCCOC(=O)N1CCN(C(=O)[C@H](CP(=O)(O)O)NC(=O)c2cc(N3CC[C@H](OC)C3)nc(-c3ccccc3)n2)CC1
change in QTcB interval (human; subcutaneous, 16 mg, 24 h post-dose; relative to: baseline): 1.7 ± 12.5 ms

CN(C)c1cc(NC(=O)CNC(C)(C)C)c(O)c2c1C[C@H]1C[C@H]3[C@H](N(C)C)C(O)=C(C(N)=O)C(=O)[C@@]3(O)C(O)=C1C2=O
amount permeated (starch gel membrane permeability; Gram-negative envelope surrogate; 200 µM, 20 min, pH 7.4): 0.9 nmol

COc1cc(C(=O)O)ccc1O
plasma concentration (human plasma; median, both sexes): 80.9 nM

CCn1cc(C(=O)N2CCOCC2)c(=O)c2cc(NC3Cc4ccccc4C3)cnc21
AUC(0-last) (human, fed; oral suspension, 2000 mg single dose, arithmetic mean): 49000 ng·h/mL

CCn1ncc2c1-c1cnc(N)c(c1)O[C@H](C)c1cc(F)ccc1-c1nn(C)nc1C2
Cmin, unbound (Balb/c nude mouse, female, PDX, plasma; po, 5 mg/kg BID, 12 h, 5 days dosing): 34 ± 16 nM

Cc1cc(NC2CCN(C(=O)OC3CCN(C(=O)/C=C/CN(C)C)C3)CC2)n2ncc(C(C)C)c2n1 (stereo not drawn)
patients with Ascites (patients with advanced solid tumours; dose not given, QD arm, grade 3 or higher): 2%

CC[C@H]1OC(=O)[C@H](C)[C@@H](O[C@H]2C[C@@](C)(OC)[C@@H](O)[C@H](C)O2)[C@H](C)[C@@H](O[C@@H]2O[C@H](C)C[C@H](N(C)C)[C@H]2O)[C@](C)(O)C[C@@H](C)C(=O)[C@H](C)[C@@H](O)[C@]1(C)O
amount permeated (starch gel membrane permeability; Gram-negative envelope surrogate; 200 µM, 30 min, pH 7.4): 0.3 nmol

Cc1ccc(Sc2ccccc2N2CCNCC2)c(C)c1
participants with TEAE (refers to: abdominal pain; healthy adult women; oral, 10 mg daily, 12 days): 0%

CC(C)(Sc1ccncc1-c1ccc(C#N)c2ccccc12)C(=O)O
AUC(0-24) (human, plasma; oral, 5 mg once daily, together with: febuxostat 10 mg): 87.6 ng·h/mL

O=C1NCCc2nc(OCc3cccc(F)c3)ccc21
Irwin test score (refers to: Tremors; Sprague-Dawley rat male; oral, 100 mg/kg, 0 min; relative to: baseline, direction not given): 0

CN(C(=O)n1cnc(-c2cccnc2)c1)[C@H]1CC[C@H](O)CC1
concentration (Wistar rat, medulla oblongata; oral, 10 mg/kg of BIA 10-2474, 4 h, single dose): 29.6 ± 7.5 ng/g

Cl.[2H]C([2H])([2H])CC(=O)c1cnc(NC(=O)C2CC2)cc1Nc1cccc(-c2ncn(C([2H])([2H])[2H])n2)c1OC
AUC(0-tau) (human, fed, multiple dose; oral, 30 mg twice daily, tablet, day 14, geometric mean): 1880 ng·h/mL

CCCCCCCCC(=O)c1cc(O)c(O)c(O)c1
confluence (COS-7; 30 µM, 24 h, 0.1% DMSO, unit not given; relative to: vehicle control): 0.82 ± 0.03

COc1ncc(-c2nc3c(n2C(C)C)[C@H](c2ccc(Cl)cc2)N(c2cc(Cl)cn(C)c2=O)C3=O)c(OC)n1
AUC(0-t) geometric mean (human patients, plasma; oral, 200 mg, 0-24 h, high-dose arm, cycle 2 day 1): 20100 ng·h/mL

Cc1cc(Nc2cccc(Cl)c2)nc(-n2nc(C)cc2C)n1
autosampler stability (mouse, processed plasma samples; 10 °C; time stable): ≥ 36 h

COc1c(O)cc2c(c1O)C(=O)c1c(cc(C)c(O)c1OC)C2=O
cell viability (HepaRG co-cultured with HK-2; MTT; 133.33 µM, 24 h; relative to: untreated control): 82.8 ± 16.1%

O=C(O)/C=C/c1ccc(O)cc1
plasma concentration (human plasma; median): 84.5 nM

CN[C@H](CC(C)C)C(=O)N[C@H]1C(=O)N[C@@H](CC(N)=O)C(=O)N[C@H]2C(=O)N[C@H]3C(=O)N[C@H](C(=O)N[C@H](C(=O)O)c4cc(O)cc(O)c4-c4cc3ccc4O)[C@H](O)c3ccc(c(Cl)c3)Oc3cc2cc(c3O[C@@H]2O[C@H](CO)[C@@H](O)[C@H](O)[C@H]2O[C@H]2C[C@](C)(N)[C@H](O)[C@H](C)O2)Oc2ccc(cc2Cl)[C@H]1O
amount permeated (starch gel membrane permeability; Gram-negative envelope surrogate; 200 µM, 60 min, pH 7.4): 1.14 nmol

O=C1CC[C@H](N2Cc3cc(N4CCN(CC5CCN(c6ccc([C@@H]7c8ccc(O)cc8CC[C@@H]7c7ccccc7)cc6)CC5)CC4)ccc3C2=O)C(=O)N1
dose excreted (radiolabelled mass balance; Sprague-Dawley rat, male, bile duct-cannulated, bile; oral, 20 mg/kg, up to 72 h): 18.3%

NC[C@@]1(CC(=O)O)[C@@H]2CC[C@H]3C[C@@H]2[C@@H]1C3
unbound fraction (human, normal renal function, plasma): 89.9%

CC1=C(Cc2cn(CCO)nn2)C(=O)c2ccccc2C1=O
half-wave potential E1/2 (first) (square wave voltammetry; DMSO; vs Ag/AgCl (3 M KCl), together with: 0.1 M n-Bu4NPF6): -0.61 V

CNC(=O)c1ccc(-c2cnc3ncc(Cc4ccc5ncccc5c4)n3n2)cc1F
patients with adverse event (refers to: Pyrexia, all grades; hepatocellular carcinoma patients; oral, 600 mg twice daily, expansion cohort, any causality): 0%

Cn1c(=O)[nH]c2nc[nH]c2c1=O
samples above LOQ (human, both sexes, cerebrospinal fluid): 0%

Cc1c(-c2ccc(N3CCc4cccc(C(=O)Nc5nc6ccccc6s5)c4C3)nc2C(=O)O)cnn1CC12CC3(C)CC(C)(C1)CC(OCCNCC[C@H](O)CO)(C3)C2
mean arterial pressure change (beagle dog, male, anaesthetised; intravenous infusion, 0.01 mg/kg/min, 15 min; relative to: baseline): 0 mmHg

Cc1cc(Nc2ccc(S(F)(F)(F)(F)F)cc2)n2nc(C(C)(F)F)nc2n1
adverse event Nausea (Plasmodium falciparum malaria patients; oral, 400 mg): 15.4%

CCc1cc(C(=O)NC)c2nccc(N3CCc4c(cc(Cn5ccnc5)cc4-c4cn(C)nc4C(F)(F)F)C3=O)c2c1
change in clinical chemistry or haematology parameter (refers to: MPV; Sprague Dawley rat; oral, 50 mg/kg once daily, 7 days; relative to: vehicle): 0.93%

CCN1/C(=C/C(C)=O)Sc2ccc(F)cc21
mean blood pressure change (cynomolgus monkey; oral, 10 mg/kg, 4 h post-dose; relative to: pre-dose): 113 ± 12.5%

CN1C[C@H](COc2nccc3c(NCc4ccco4)cc(Cl)nc23)OC1=O
tissue/plasma ratio (C57BL/6 mice; oral, 30 mg/kg, 0.5 h; relative to: heart over plasma): ~0.75

CCOC(=O)c1cc(O)c(O)c(O)c1
plasma concentration (human plasma; mean): 5.3 nM

CCC(C)n1ncn(-c2ccc(N3CCN(c4ccc(OCC5COC(Cn6cncn6)(c6ccc(Cl)cc6Cl)O5)cc4)CC3)cc2)c1=O (stereo not drawn)
adverse events (healthy human volunteers; oral, 200 mg, event Flatulence, continued dosing): 0%

COc1ccc2c3c([nH]c2c1)[C@H](CC(C)C)N1C(=O)[C@H](CC(=O)NC(C)C)NC(=O)[C@@H]1C3
serum concentration (wild-type mouse, male, serum; oral, 100 mg/kg, 8 h): 348 nM and 1760 nM and 72 nM and 369 nM

NC1(C(=O)N[C@@H](CCO)c2ccc(Cl)cc2)CCN(c2nc[nH]c3nccc2-3)CC1
incidence of Blindness (metastatic CRPC patients; 320 mg b.i.d., grade 3 to 4, treatment-related, together with: enzalutamide 160 mg daily): 0%

COc1ccc(CCC(=O)O)cc1O[C@@H]1O[C@H](C(=O)O)[C@@H](O)[C@H](O)[C@H]1O
plasma concentration (human plasma; median): 304 nM

Cc1ccc(C(=O)N(CCCN)C(c2nc3snc(C)c3c(=O)n2Cc2ccccc2)C(C)C)cc1 (stereo not drawn)
C24h (patients, plasma; intravenous, dose not given, 24 h, first induction course, all doses, geometric mean): 13.2 ng/mL

A few entries again:
Cn1c(=O)[nH]c2nc[nH]c2c1=O
samples above LOQ (human, both sexes, cerebrospinal fluid): 0%

Cc1c(-c2ccc(N3CCc4cccc(C(=O)Nc5nc6ccccc6s5)c4C3)nc2C(=O)O)cnn1CC12CC3(C)CC(C)(C1)CC(OCCNCC[C@H](O)CO)(C3)C2
mean arterial pressure change (beagle dog, male, anaesthetised; intravenous infusion, 0.01 mg/kg/min, 15 min; relative to: baseline): 0 mmHg

Cc1cc(Nc2ccc(S(F)(F)(F)(F)F)cc2)n2nc(C(C)(F)F)nc2n1
adverse event Nausea (Plasmodium falciparum malaria patients; oral, 400 mg): 15.4%

CCc1cc(C(=O)NC)c2nccc(N3CCc4c(cc(Cn5ccnc5)cc4-c4cn(C)nc4C(F)(F)F)C3=O)c2c1
change in clinical chemistry or haematology parameter (refers to: MPV; Sprague Dawley rat; oral, 50 mg/kg once daily, 7 days; relative to: vehicle): 0.93%
